Measured values collected from several papers.
Values joined by “and” are separate records of one study, mostly repeats; a detail may differ. ± marks the error that the study gave. Values after ≈ are worked out from the molar mass of the structure shown.

CNC(C)C1CCC(N)C(OC2C(N)CC(N)C(OC3OCC(C)(O)C(NC)C3O)C2O)O1 (stereo not drawn)  MIC (Pseudomonas aeruginosa; clinical isolate RKI-No_481/15): > 8 µg/mL
CCCCCCCCCC(=O)N[C@@H](Cc1c[nH]c2ccccc12)C(=O)N[C@H](CC(N)=O)C(=O)N[C@@H](CC(=O)O)C(=O)N[C@@H]1C(=O)NCC(=O)N[C@@H](CCCN)C(=O)N[C@@H](CC(=O)O)C(=O)N[C@H](C)C(=O)N[C@@H](CC(=O)O)C(=O)NCC(=O)N[C@H](CO)C(=O)N[C@@H]([C@H](C)CC(=O)O)C(=O)N[C@@H](CC(=O)c2ccccc2N)C(=O)O[C@@H]1C  MIC (Staphylococcus simulans; broth microdilution; 22, Mueller-Hinton broth, Mg2+ 10 mg/L; 16 h, 30 °C, added: Ca2+ 0 mM): > 128 µg/mL
Nc1nc2c(ncn2COCCO)c(=O)[nH]1  EC50 (herpes simplex virus 1; viral cytopathic effect; Vero; 120 h): 1050 nM
COC[C@H]1O[C@@H]2O[C@@H]3[C@@H](OC)[C@@H](OC)[C@@H](O[C@@H]4[C@@H](OC)[C@@H](OC)[C@@H](O[C@@H]5[C@@H](OC)[C@@H](OC)[C@@H](O[C@@H]6[C@@H](OC)[C@@H](OC)[C@@H](O[C@@H]7[C@@H](OC)[C@@H](OC)[C@@H](O[C@@H]1[C@@H](OC)[C@H]2OC)O[C@@H]7COC)O[C@@H]6COC)O[C@@H]5COC)O[C@@H]4COC)O[C@@H]3COC  inhibition (Escherichia coli; LuxR reporter, antagonist; DH5α sensor strain; 10 µM, added: OHHL 200 nM): -4 ± 1%
O=c1c2cc(Oc3ccc(OC(F)(F)F)cc3)ccc2[nH]c2cc(Cl)cc(F)c12  ED50 (Plasmodium yoelii; antimalarial activity; CF1 mouse; oral, once daily for 4 days): 1.44 mg/kg
O=c1cccc(O)c(O)c1O  reduction in viral titre (herpes simplex virus 1; viral replication; 5 µM): 0.1 log10
O=C(Nc1cccc(C2=NCCN2)c1)Nc1cccc(C2=NCCN2)c1  inhibition (Theileria equi; parasite growth, flow cytometry; horse erythrocytes, USDA Florida strain; 0.344 µM, 72 h): 9.59%
Cc1ccc(N(c2ccc(NC(=O)CN(C)c3ccccc3N3CCCC3=O)cc2)C(C)C)cc1  99.9% parasite clearance time (Plasmodium falciparum; 3D7 asexual blood stage; 10 x EC50): 55.2 h
COCC(=O)N1CCCC(C(=O)NCc2nc(-c3ccccc3)cs2)C1 (racemic)  EC50 (Plasmodium falciparum; 72 h): 97 nM
CSc1ccc(OCc2ncc([N+](=O)[O-])n2C)cc1  IC50 (Trichomonas gallinae; CCK-8; trophozoites; 24 h): 9480 nM
COC1=CC(c2ccc[nH]2)=N/C1=C\c1[nH]c(-c2ccc(OC)cc2)cc1-c1ccc(OC)cc1  parasitaemia reduction (Plasmodium yoelii; CF1 mice; oral, 10 mg/kg daily for 4 days, day 5; relative to: vehicle): 0%
COc1cccc(C=Cc2nc(=O)c3ccccc3o2)c1OC  IC50 (Plasmodium yoelii; 17XL; 384-well): 28 ± 10 nM
Cc1cc(OC(C)C)ccc1C(=O)C(C)(C)NC(=O)c1sccc1C  EC95 (Botrytis cinerea; lesion diameter; B05.10, cucumber seedlings; spray, 3 days, 20 °C): 11.4 µg/mL (≈ 31.7 µM)
CC(=O)Oc1ccccc1C(=O)Nc1ncc([N+](=O)[O-])s1  parasite number (Cryptosporidium parvum; HCT-8; EC90, 0 h; relative to: DMSO control): 109% and 93.3% and 96.8% and 101%
Cc1cc(Nc2ccc(S(F)(F)(F)(F)F)cc2)n2nc(C(C)(F)F)nc2n1  parasite clearance half-life (Plasmodium falciparum; microscopy; human malaria patients; 250 mg, mean): 5.4 h
CCOc1ccc2cc(-c3nn(CC4CCN(C)CC4)c4ncnc(N)c34)ccc2n1  % of maximum PPE (Theileria equi; hydroethidine flow cytometry; USDA Florida; 30 µM, 72 h): 10.2%
COC1=CC(c2ccc[nH]2)=N/C1=C\c1[nH]c(C)cc1Cc1ccc(OC(F)(F)F)cc1.Cl  parasitaemia reduction (Plasmodium yoelii; CF1 mice; oral, 25 mg/kg daily for 4 days, day 5; relative to: vehicle): 100%
Cc1ncc([N+](=O)[O-])n1CCO  IC50 (Trichomonas gallinae; trophozoite viability, CCK-8): 3.19 µg/mL
O=C(c1cc(-c2ccco2)[nH]n1)N1CCN(S(=O)(=O)c2ccc(Cl)cc2)CC1  IC50 (Plasmodium yoelii; 17XL; 384-well): 411 ± 123 nM
CCOc1ccc2cc(-c3nn(CC4CCN(C)CC4)c4ncnc(N)c34)ccc2c1  % of maximum PPE (Theileria equi; hydroethidine flow cytometry; USDA Florida; 0.3 µM, 72 h): 93.9%
CS(=O)(=O)NCCCNCc1ccc(-c2cccc(-c3nc4cc(C(F)(F)F)ccc4[nH]3)c2)cc1  IC50 (Plasmodium yoelii; 17XL; 384-well): > 20000 nM
CC(C)n1ncc2c(C(=O)NCC3(C)CNC3)cc(C3CC3)nc21  plaque reduction (enterovirus D68; recombinant US/MO/14-18947 wild type; 5000 nM): 100%
CCOC1=CC(c2ccc[nH]2)=N/C1=C\c1cc(Cc2ccc(OC(F)(F)F)cc2)c(C)[nH]1.Cl  parasitaemia reduction (Plasmodium yoelii; CF1 mice; oral, 25 mg/kg daily for 4 days, day 5; relative to: vehicle): 100%
C[C@@H]1OC(=O)[C@H](Cc2ccccc2)[C@H]1O  EC50 (Pseudokirchneriella subcapitata; growth rate; 72 h, static test): > 9 µg/mL
Nc1ccccc1C(=O)NCCCCNc1ccnc2ccccc12  inhibition (Chromobacterium violaceum; violacein production; ATCC 31532; 40 µM, quorum sensing reporter): 23.1%
O=C(O)c1ccnc(C(=O)O)c1  viability (HBL-1; 0.1 µM, 120 h): 112%
O=[N+]([O-])c1ccc2[nH]c(CNCC34CC5CC(CC(C5)C3)C4)nc2c1  MIC50 (Streptococcus pneumoniae; clinical isolates): 2 µg/mL (≈ 5.87 µM)
COC1=CC(c2ccc[nH]2)=N/C1=C\c1cc(Cc2ccc(OC(F)(F)F)cc2)c(C)[nH]1.Cl  parasitaemia reduction (Plasmodium yoelii; CF1 mice; oral, 25 mg/kg daily for 4 days, day 5; relative to: vehicle): 100%
CN[C@H](CC(C)C)C(=O)N[C@H]1C(=O)N[C@@H](CC(N)=O)C(=O)N[C@H]2C(=O)N[C@H]3C(=O)N[C@H](C(=O)N[C@H](C(=O)O)c4cc(O)cc(O)c4-c4cc3ccc4O)[C@H](O)c3ccc(c(Cl)c3)Oc3cc2cc(c3O[C@@H]2O[C@H](CO)[C@@H](O)[C@H](O)[C@H]2O[C@H]2C[C@](C)(N)[C@H](O)[C@H](C)O2)Oc2ccc(cc2Cl)[C@H]1O  MIC50 (Staphylococcus aureus; MRSA, 10 isolates; pH 5.5): 1 µg/mL (≈ 0.69 µM)
CCOc1ccc2cc(-c3nn(CC4CCNCC4)c4ncnc(N)c34)ccc2c1  % of maximum PPE (Theileria equi; hydroethidine flow cytometry; USDA Florida; 3 µM, 72 h): 88.1%
N=C(N)c1cccc(OCc2ccc(COc3cccc(C(=N)N)c3)cc2)c1  MIC of compound in combination (Escherichia coli; checkerboard; mcr-1 polymyxin-resistant; concentration not given, 20 h, added: rifampicin): 50 µg/mL
CCCCN(C)CC#Cc1ccc2[nH]c(C)c(Cl)c(=O)c2c1  IC50 (Plasmodium yoelii; 17XL; 384-well): 770 ± 589 nM
Cc1[nH]c(/C=C2\N=C(c3ccc[nH]3)C=C2OCc2ccccc2)cc1Cc1ccc(Cl)cc1.Cl  parasitaemia reduction (Plasmodium yoelii; CF1 mice; oral, 10 mg/kg daily for 4 days, day 5; relative to: vehicle): 39.7%
COc1c(N2C[C@@H]3CCCN[C@@H]3C2)c(F)cc2c(=O)c(C(=O)O)cn(C3CC3)c12  MIC50 (Streptococcus pneumoniae; broth microdilution; penicillin-resistant isolates): 0.5 µg/mL (≈ 1.25 µM)
Cn1cc(-c2ccc(-c3cncc(Cl)c3N3CCC4(CCNC4=O)CC3)cc2)cn1  log2 fold change (COLO 205; gene expression, microarray, refers to: ATF3 mRNA; concentration not given, 6 h; relative to: untreated cells): 2.11
COC(=O)[C@H](Cc1ccc(O)cc1)NCc1cc2ccccc2nc1SC  growth (Pseudomonas aeruginosa; 2 µg/mL, without pentamidine; relative to: control): 97.9%
Cc1[nH]c(C)c(-c2ccc(OCc3cccc(C(F)(F)F)c3)nc2)c(=O)c1Br  IC50 (Plasmodium yoelii; 17XL; 384-well): 86 ± 25 nM
N#Cc1cc(-c2nc3ccccc3s2)c(=O)n(NS(=O)(=O)c2ccccc2)c1N  plaque reduction (coxsackievirus B4; viral replication, plaque; BGM; non-toxic dose, mean of three titres): 63.3%
CCOC1=CC(c2ccc[nH]2)=N/C1=C\c1cc(Cc2ccc(Cl)cc2)c(C)[nH]1.Cl  parasitaemia reduction (Plasmodium yoelii; CF1 mice; oral, 25 mg/kg daily for 4 days, day 5; relative to: vehicle): 100%
COc1ccc(-c2nc(N3CCOCC3)c3sc(CN(C)c4ncc(C(=O)NO)cn4)cc3n2)cn1  IC50 (herpes simplex virus 1; viral replication; fibroblasts, K26, GFP-expressing): > 10000 nM
CCCCCCCCc1c(C)[nH]c(C)c(Cl)c1=O  IC50 (Plasmodium yoelii; 17XL; 384-well): 56 ± 17 nM
Cc1ccc(S(=O)(=O)Nn2c(N)c(C#N)cc(-c3nc4ccccc4s3)c2=O)cc1  plaque reduction (herpes simplex virus 1; viral replication, plaque; Vero; non-toxic dose, mean of three titres): 10%
O=C(c1cc(-c2ccccc2O)on1)N1CCN(C(c2ccccc2)c2ccccc2)CC1  IC50 (Plasmodium yoelii; 17XL; 384-well): 558 ± 83 nM
N=C(N)c1ccc(OCc2ccc(Br)cc2COc2ccc(C(=N)N)cc2)cc1  MIC of compound in combination (Escherichia coli; checkerboard; BW25113; concentration not given, lowest-FICI combination, added: erythromycin): 12.5 µg/mL
CCCCCCCc1[nH]c2ccccc2c(=O)c1C  IC50 (Plasmodium yoelii; 17XL; 384-well): 159 ± 11 nM
O=c1c(O)c(-c2ccc(O)c(O)c2)oc2cc(O)cc(O)c12  inhibition (Chromobacterium violaceum; violacein production; ATCC 31532; 400 µM, quorum sensing reporter): 64.2%
NC(=O)[C@H](CCCN=C(N)CF)NC(=O)c1ccccc1  viability (HBL-1; 0.1 µM, 120 h): 134%
Nc1nc(-c2ccccc2)nc2[nH]nc(Nc3ccc(C(F)(F)F)cc3)c12  clinical score (coxsackievirus B3; 31-1-93, NMRI mice, CVB3 chronic myocarditis; oral, 100 mg/kg twice daily, day 1, dosed days 3 to 10, score scale 0 to 7; direction not given): 0
Oc1c(Br)cc(Br)c2cccnc12  IC50 (Trichomonas gallinae; CCK-8; trophozoites; 24 h): 10200 nM
C=CC[C@@H]1c2ccc(OC)c(OC)c2CN2CCc3cc4c(cc3[C@H]12)OCO4  relative wound size (Staphylococcus aureus; P2rx7+/+ mice, skin wound infection; dose not given, day 3; relative to: day 0): 0.78 and 0.67 and 0.62 and 1 and 0.46
Cc1[nH]c(/C=C2\N=C(c3ccc[nH]3)C=C2OCc2ccccc2)cc1Cc1ccc(OC(F)(F)F)cc1  parasitaemia reduction (Plasmodium yoelii; CF1 mice; oral, 25 mg/kg daily for 4 days, day 5; relative to: vehicle): 100%

Repeated from above:
N#Cc1cc(-c2nc3ccccc3s2)c(=O)n(NS(=O)(=O)c2ccccc2)c1N  plaque reduction (coxsackievirus B4; viral replication, plaque; BGM; non-toxic dose, mean of three titres): 63.3%
CCOC1=CC(c2ccc[nH]2)=N/C1=C\c1cc(Cc2ccc(Cl)cc2)c(C)[nH]1.Cl  parasitaemia reduction (Plasmodium yoelii; CF1 mice; oral, 25 mg/kg daily for 4 days, day 5; relative to: vehicle): 100%
COc1ccc(-c2nc(N3CCOCC3)c3sc(CN(C)c4ncc(C(=O)NO)cn4)cc3n2)cn1  IC50 (herpes simplex virus 1; viral replication; fibroblasts, K26, GFP-expressing): > 10000 nM
CCCCCCCCc1c(C)[nH]c(C)c(Cl)c1=O  IC50 (Plasmodium yoelii; 17XL; 384-well): 56 ± 17 nM
Cc1ccc(S(=O)(=O)Nn2c(N)c(C#N)cc(-c3nc4ccccc4s3)c2=O)cc1  plaque reduction (herpes simplex virus 1; viral replication, plaque; Vero; non-toxic dose, mean of three titres): 10%
